Assay results from different studies.
Numbered parts are unrelated; each lists some results of a single study. Values joined by “and” are separate records of one study, mostly repeats; a detail may differ.
Chain of UniProt P22607 (whole entry, looked up): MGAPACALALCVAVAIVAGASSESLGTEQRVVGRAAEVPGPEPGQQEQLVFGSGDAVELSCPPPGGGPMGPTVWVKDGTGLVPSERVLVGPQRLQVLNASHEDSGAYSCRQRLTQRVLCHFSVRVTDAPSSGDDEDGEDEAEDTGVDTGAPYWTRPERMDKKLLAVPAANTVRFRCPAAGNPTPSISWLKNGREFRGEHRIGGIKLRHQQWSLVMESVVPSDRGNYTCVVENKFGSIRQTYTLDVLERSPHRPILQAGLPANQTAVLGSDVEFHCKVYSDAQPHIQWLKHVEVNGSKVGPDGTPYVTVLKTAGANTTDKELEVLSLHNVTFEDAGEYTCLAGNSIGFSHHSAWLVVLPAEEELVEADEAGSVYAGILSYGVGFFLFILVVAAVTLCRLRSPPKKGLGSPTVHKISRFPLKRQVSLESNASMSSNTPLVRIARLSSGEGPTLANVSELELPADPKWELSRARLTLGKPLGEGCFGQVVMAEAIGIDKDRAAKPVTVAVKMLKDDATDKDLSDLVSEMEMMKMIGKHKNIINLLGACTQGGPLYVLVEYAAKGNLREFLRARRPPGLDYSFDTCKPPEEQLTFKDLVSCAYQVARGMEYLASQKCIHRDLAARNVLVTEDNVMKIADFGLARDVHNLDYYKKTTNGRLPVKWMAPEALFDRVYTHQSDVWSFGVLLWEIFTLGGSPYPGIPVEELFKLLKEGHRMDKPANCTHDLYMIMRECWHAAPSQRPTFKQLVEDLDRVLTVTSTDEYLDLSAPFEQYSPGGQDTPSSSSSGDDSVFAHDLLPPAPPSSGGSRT
Chain of UniProt P78356 (whole entry, looked up): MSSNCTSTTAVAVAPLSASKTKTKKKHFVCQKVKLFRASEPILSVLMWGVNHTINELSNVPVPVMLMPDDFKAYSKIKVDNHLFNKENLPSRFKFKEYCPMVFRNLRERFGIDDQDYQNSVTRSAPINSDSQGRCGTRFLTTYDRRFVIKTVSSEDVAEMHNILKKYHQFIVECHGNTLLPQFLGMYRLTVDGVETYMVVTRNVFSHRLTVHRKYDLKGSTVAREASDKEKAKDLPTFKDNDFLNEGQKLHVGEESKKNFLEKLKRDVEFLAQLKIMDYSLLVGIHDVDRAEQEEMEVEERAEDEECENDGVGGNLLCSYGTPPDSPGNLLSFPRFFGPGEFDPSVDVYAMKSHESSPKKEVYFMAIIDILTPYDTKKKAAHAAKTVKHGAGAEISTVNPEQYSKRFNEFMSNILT
Chain of UniProt Q8IU85 (whole entry, looked up): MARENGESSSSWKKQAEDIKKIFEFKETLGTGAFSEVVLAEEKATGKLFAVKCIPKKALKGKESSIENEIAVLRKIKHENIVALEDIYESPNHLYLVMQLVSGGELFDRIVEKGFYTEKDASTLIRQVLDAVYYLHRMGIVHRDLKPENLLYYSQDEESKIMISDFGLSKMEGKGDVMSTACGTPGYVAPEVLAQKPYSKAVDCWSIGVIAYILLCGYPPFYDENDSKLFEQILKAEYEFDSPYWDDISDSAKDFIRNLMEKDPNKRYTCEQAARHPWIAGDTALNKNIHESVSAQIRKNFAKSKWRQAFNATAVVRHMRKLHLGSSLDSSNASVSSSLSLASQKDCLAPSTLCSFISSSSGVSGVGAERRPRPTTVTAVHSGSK
Chain of UniProt Q16512 (whole entry, looked up): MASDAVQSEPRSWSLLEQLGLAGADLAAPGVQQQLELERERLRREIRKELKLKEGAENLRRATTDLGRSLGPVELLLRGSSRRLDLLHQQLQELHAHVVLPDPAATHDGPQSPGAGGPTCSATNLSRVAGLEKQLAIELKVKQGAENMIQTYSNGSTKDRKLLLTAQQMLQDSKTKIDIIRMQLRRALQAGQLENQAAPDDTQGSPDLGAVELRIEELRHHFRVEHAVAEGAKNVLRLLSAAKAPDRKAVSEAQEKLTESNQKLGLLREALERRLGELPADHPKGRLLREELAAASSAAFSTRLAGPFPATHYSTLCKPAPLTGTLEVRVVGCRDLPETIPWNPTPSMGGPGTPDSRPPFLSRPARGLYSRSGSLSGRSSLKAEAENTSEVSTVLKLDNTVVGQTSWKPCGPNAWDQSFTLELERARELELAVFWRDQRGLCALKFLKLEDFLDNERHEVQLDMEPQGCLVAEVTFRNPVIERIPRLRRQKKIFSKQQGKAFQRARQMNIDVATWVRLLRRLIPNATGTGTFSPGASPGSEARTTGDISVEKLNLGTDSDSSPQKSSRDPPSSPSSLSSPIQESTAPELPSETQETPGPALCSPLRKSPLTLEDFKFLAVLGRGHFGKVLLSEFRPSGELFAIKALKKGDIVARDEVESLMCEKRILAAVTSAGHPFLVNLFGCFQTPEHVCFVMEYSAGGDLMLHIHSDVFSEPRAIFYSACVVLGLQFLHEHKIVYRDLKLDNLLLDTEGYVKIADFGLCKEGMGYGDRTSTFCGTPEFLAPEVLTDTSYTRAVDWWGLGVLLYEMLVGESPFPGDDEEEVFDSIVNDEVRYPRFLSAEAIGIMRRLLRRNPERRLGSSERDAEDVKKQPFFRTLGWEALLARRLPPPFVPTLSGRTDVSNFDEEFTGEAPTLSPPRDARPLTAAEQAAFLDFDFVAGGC
Chain of UniProt P53779 (whole entry, looked up): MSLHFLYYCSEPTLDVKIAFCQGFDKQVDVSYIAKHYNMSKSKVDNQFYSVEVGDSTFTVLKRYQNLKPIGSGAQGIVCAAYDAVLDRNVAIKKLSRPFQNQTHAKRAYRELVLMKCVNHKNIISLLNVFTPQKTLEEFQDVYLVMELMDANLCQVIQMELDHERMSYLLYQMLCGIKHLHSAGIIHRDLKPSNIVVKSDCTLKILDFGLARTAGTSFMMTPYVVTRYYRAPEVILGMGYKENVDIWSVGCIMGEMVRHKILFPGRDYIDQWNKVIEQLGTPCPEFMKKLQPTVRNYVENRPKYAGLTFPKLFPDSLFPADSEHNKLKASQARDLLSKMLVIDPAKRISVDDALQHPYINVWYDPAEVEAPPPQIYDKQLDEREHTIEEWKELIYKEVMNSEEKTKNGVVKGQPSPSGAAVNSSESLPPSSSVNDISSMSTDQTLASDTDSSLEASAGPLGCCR
Chain of UniProt Q13177 (whole entry, looked up): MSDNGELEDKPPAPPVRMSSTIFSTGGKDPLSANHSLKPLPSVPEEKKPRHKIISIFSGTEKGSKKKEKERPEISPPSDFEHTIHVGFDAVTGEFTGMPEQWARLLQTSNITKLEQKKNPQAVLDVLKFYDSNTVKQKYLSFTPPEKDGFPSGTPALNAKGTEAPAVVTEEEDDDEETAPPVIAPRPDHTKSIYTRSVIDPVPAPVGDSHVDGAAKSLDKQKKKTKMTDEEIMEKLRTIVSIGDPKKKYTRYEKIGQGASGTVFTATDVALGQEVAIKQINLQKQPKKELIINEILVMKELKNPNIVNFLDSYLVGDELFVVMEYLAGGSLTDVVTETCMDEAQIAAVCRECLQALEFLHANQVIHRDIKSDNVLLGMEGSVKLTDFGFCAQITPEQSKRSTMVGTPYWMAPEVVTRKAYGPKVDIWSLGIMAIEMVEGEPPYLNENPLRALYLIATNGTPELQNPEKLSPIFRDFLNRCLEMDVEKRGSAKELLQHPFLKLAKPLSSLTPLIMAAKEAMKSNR

Set 1 — effect on: kinase activity
SMILES: CNc1ncc2cc(-c3cc(OC)cc(OC)c3Cl)c(=O)n(CCc3ccc(NC(=O)C(C#N)=CC(C)(C)N4CCOCC4)cc3)c2n1
| target | tested at | inhibition |
| --- | --- | --- |
| CSNK1G2 (Homo sapiens, UniProt P78368) | 1 µM | 9% |
| PAK2 (Homo sapiens, UniProt Q13177) | 1 µM | 0% |
| STK10 (Homo sapiens, UniProt O94804) | 1 µM | 9% |
| CAMK1D (Homo sapiens, UniProt Q8IU85) | 0.1 µM | 1% |
| MAP2K2 (Homo sapiens, UniProt P36507) | 0.1 µM | -5% |
| BRAF (Homo sapiens, UniProt P15056) | 1 µM | 0% |
| PRKCH (Homo sapiens, UniProt P24723) | 1 µM | -18% |
| INSRR (Homo sapiens, UniProt P14616) | 1 µM | 1% |
| FGFR3 (Homo sapiens, UniProt P22607) | 0.1 µM | 95% and > 90% |
| MAPK10 (Homo sapiens, UniProt P53779) | 0.1 µM | 7% |
| Cyclin-dependent kinase 3, with cyclin E (CDK3, Homo sapiens, UniProt Q00526) | 1 µM | 5% |
| NTRK3 (Homo sapiens, UniProt Q16288) | 0.1 µM | 3% |
| PRKD1 (Homo sapiens, UniProt Q15139) | 0.1 µM | 0% |
| PI4KB (Homo sapiens, UniProt Q9UBF8) | 0.1 µM | 0% |
| MARK4 (Homo sapiens, UniProt Q96L34) | 1 µM | 0% |

Set 2
SMILES: COCC1CC2C(CCC3C(O)CCC32)c2ccc(O)cc21 (stereo not drawn)
| cell line | technique | item | tested at | relative to | mRNA level ratio |
| --- | --- | --- | --- | --- | --- |
| PANC-1 | DNA microarray | GAPDH | 25 µM | untreated cells | 0.634 and 0.62 and 0.604 and 0.611 and 0.622 |
| A549 | DNA microarray | KIF20A | 100 µM | untreated cells | 0.824 and 0.853 and 0.832 and 0.841 and 0.844 |
| SK-OV-3 | microarray | PIF1 | 100 µM | untreated | 0.978 |
| PANC-1 | microarray | MCM6 | 25 µM | untreated | 1.52 |
| SK-OV-3 | microarray | CDC25B | 100 µM | untreated | 1.13 |
| SK-OV-3 | DNA microarray | MCM7 | 25 µM | untreated cells | 1.01 |
| SK-OV-3 | DNA microarray | MCM7 | 100 µM | untreated cells | 0.774 |
| PANC-1 | microarray | RFC3 | 25 µM | untreated | 1.7 |
| SK-OV-3 | microarray | OLIG2 | 100 µM | untreated | 1 |
| SK-OV-3 | microarray | CCL11 | 100 µM | untreated | 406 |
| PANC-1 | microarray | RFC3 | 100 µM | untreated | 1.73 |
| SK-OV-3 | DNA microarray | TMEM108 | 25 µM | untreated cells | 1.11 |
| A549 | microarray | GZMK | 100 µM | untreated | 1 |
| A549 | DNA microarray | GAPDH | 25 µM | untreated cells | 0.814 and 0.823 and 0.816 |
| PANC-1 | DNA microarray | ACTB | 100 µM | untreated cells | 0.525 and 0.515 and 0.489 and 0.51 |

Set 3 — effect on: thermal unfolding; technique: differential scanning fluorimetry; tested at: 5.5 µM; reading: higher = more unfolded
SMILES: C[C@@H]1CN(c2ccc(-c3cc(C(=O)NCCOCCOCCOCCOCCNC(=O)Cn4cc(-c5[nH]cc(C(=O)N[C@@H](CC(N)=O)c6ccc(F)c(Cl)c6)c5-c5ccc(Cl)cc5F)cn4)ccc3F)cc2NC(=O)c2c[nH]c(=O)cc2C(F)(F)F)C[C@H](C)N1C
DCAF1: DDB1- and CUL4-associated factor 1 (DCAF1, Homo sapiens, UniProt Q9Y4B6)
Chain of UniProt Q9Y4B6 (whole entry, looked up): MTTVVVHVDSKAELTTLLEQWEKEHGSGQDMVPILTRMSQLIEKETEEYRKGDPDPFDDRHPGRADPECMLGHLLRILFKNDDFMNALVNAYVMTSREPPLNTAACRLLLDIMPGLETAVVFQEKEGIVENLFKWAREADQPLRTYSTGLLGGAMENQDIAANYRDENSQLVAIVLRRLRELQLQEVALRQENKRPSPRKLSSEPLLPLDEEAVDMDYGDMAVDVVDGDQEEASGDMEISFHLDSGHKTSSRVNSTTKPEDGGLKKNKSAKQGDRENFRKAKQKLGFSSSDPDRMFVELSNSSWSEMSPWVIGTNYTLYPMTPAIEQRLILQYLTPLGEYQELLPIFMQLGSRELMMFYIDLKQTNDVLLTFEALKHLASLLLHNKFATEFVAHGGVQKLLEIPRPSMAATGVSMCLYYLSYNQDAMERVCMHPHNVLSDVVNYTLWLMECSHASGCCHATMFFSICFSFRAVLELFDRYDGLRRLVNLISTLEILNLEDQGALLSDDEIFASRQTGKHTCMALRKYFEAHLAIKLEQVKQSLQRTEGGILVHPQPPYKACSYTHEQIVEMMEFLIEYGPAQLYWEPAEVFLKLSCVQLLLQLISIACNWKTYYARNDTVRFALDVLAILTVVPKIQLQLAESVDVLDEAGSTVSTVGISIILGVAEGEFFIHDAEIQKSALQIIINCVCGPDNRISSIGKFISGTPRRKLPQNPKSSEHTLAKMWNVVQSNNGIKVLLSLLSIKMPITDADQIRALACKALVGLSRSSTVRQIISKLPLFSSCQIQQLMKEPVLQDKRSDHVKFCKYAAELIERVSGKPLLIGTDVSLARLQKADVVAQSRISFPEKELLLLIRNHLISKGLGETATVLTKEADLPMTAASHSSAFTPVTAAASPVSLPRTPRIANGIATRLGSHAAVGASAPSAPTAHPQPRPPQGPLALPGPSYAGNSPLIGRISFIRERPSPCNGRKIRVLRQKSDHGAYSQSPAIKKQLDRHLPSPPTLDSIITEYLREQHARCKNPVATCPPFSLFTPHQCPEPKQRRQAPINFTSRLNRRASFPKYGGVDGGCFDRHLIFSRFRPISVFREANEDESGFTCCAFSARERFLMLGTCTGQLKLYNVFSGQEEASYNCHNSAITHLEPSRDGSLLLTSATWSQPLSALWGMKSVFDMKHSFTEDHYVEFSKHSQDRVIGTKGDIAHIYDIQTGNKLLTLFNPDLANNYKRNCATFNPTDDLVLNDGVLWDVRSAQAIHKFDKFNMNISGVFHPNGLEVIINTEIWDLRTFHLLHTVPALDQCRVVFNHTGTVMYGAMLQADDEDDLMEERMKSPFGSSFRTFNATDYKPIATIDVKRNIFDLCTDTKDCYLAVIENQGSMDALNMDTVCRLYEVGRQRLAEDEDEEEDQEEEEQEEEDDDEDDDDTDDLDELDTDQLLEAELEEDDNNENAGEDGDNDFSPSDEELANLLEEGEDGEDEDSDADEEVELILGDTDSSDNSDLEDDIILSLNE
WDR5: WD repeat-containing protein 5 (WDR5, Homo sapiens, UniProt P61964)
| target | temperature | SYPRO Orange fluorescence [a.u.] |
| --- | --- | --- |
| DCAF1 | 73.41 °C | 51000 |
| DCAF1 | 88.81 °C | 36300 |
| WDR5 | 77.41 °C | 15700 |
| DCAF1 | 89.21 °C | 35900 |
| DCAF1 | 31.6 °C | 8260 |
| DCAF1 | 82.41 °C | 42200 |
| DCAF1 | 79.41 °C | 44800 |
| WDR5 | 61.21 °C | 9720 |
| DCAF1 | 34.2 °C | 8610 |
| WDR5 | 45 °C | 14300 |
| DCAF1 | 60.41 °C | 40000 |

Set 4 — tested at: 1 µM
Structure (SMILES): CC[C@@]1(c2cccc(C(F)(F)F)c2)C2=C(Nc3n[nH]cc31)[C@H](F)C(C)(C)CC2=O (single isomer, unassigned)
| target | effect on | technique | relative to | remaining binding [%] |
| --- | --- | --- | --- | --- |
| MAP4K2 (Homo sapiens, UniProt Q12851) | kinase binding | KINOMEscan | DMSO control | 100 |
| STK26 (Homo sapiens, UniProt Q9P289) | binding | competition with immobilised ligand |  | 100 |
| PIP4K2B (Homo sapiens, UniProt P78356) | binding | competition with immobilised ligand |  | 100 |
| PHKG2 (Homo sapiens, UniProt P15735) | binding | competition with immobilised ligand |  | 100 |
| ULK3 (Homo sapiens, UniProt Q6PHR2) | binding | competition with immobilised ligand |  | 69 |
| PLK4 (Homo sapiens, UniProt O00444) | binding | competition with immobilised ligand |  | 100 |
| MAPKAPK5 (Homo sapiens, UniProt Q8IW41) | kinase binding | KINOMEscan | DMSO control | 100 |
| EGFR (Homo sapiens, UniProt P00533, del747-750/T751S) | binding | competition with immobilised ligand |  | 68 |
| Myosin-IIIb (MYO3B, Homo sapiens, UniProt Q8WXR4) | kinase binding | KINOMEscan | DMSO control | 100 |
| AAK1 (Homo sapiens, UniProt Q2M2I8) | kinase binding | KINOMEscan | DMSO control | 88 |
| MATK (Homo sapiens, UniProt P42679) | binding | competition with immobilised ligand |  | 100 |
| LRRK2 (Homo sapiens, UniProt Q5S007) | kinase binding | KINOMEscan | DMSO control | 79 |
| AXL (Homo sapiens, UniProt P30530) | binding | competition with immobilised ligand |  | 89 |
| SRPK3 (Homo sapiens, UniProt Q9UPE1) | kinase binding | KINOMEscan | DMSO control | 100 |
| PLK3 (Homo sapiens, UniProt Q9H4B4) | binding | competition with immobilised ligand |  | 95 |
| PKN1 (Homo sapiens, UniProt Q16512) | kinase binding | KINOMEscan | DMSO control | 100 |
| FLT3 (Homo sapiens, UniProt P36888, N841I) | kinase binding | KINOMEscan | DMSO control | 100 |
| Insulin receptor (INSR, Homo sapiens, UniProt P06213) | kinase binding | KINOMEscan | DMSO control | 100 |
| FGFR4 (Homo sapiens, UniProt P22455) | binding | competition with immobilised ligand |  | 82 |

A few entries again (set 4):
| target | effect on | technique | relative to | remaining binding [%] |
| --- | --- | --- | --- | --- |
| Myosin-IIIb (MYO3B, Homo sapiens, UniProt Q8WXR4) | kinase binding | KINOMEscan | DMSO control | 100 |
| AAK1 (Homo sapiens, UniProt Q2M2I8) | kinase binding | KINOMEscan | DMSO control | 88 |
| MATK (Homo sapiens, UniProt P42679) | binding | competition with immobilised ligand |  | 100 |
| LRRK2 (Homo sapiens, UniProt Q5S007) | kinase binding | KINOMEscan | DMSO control | 79 |
| AXL (Homo sapiens, UniProt P30530) | binding | competition with immobilised ligand |  | 89 |
| SRPK3 (Homo sapiens, UniProt Q9UPE1) | kinase binding | KINOMEscan | DMSO control | 100 |
| PLK3 (Homo sapiens, UniProt Q9H4B4) | binding | competition with immobilised ligand |  | 95 |
| PKN1 (Homo sapiens, UniProt Q16512) | kinase binding | KINOMEscan | DMSO control | 100 |
| FLT3 (Homo sapiens, UniProt P36888, N841I) | kinase binding | KINOMEscan | DMSO control | 100 |
